Assay results from different studies.
A part holds a random share of what one study measured. Positions count from the first letter of the parent shown.

Set 1
Target: Fragile X messenger ribonucleoprotein 1, C-terminal low-complexity region (Fmr1, Mus musculus, UniProt P35922)
Method: RNA Bind-n-Seq
Molecule type: RNA
Matrix: in vitro
Concentration: 200 nM
Notes: whole 134-nt RNA, ends assumed
With: 150 mM KCl
Reference: input library
Direction: higher = stronger binding
Oligonucleotide	log2 enrichment
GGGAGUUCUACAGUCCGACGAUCCACAGACAACACGCACCCACACAGACACAGAGGGAAGGGGUUGGGAUGGUGACAGGGUGCACAGCAGGGCGGGGUAGGACCCCAGCCCCUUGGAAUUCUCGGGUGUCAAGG	0.752
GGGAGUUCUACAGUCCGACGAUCGUCCUGUGCUACACAUCGUAUGUACCGAAUCGGGGAAAAAGGGGAGGGGAAAAAGGGGAAAGUAUUAUGUUACGCCGUUCGGAUCUGCACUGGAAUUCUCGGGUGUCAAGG	0.404
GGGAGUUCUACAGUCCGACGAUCUGUGCUACACAUCGUAUGUACCGAAUCGGGGUUUUUUUGGGGUUUUUUUGGGUUUUUUUGGGGAAAGUAUUAUGUUACGCCGUUCGGAUCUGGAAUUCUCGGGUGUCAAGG	0.235
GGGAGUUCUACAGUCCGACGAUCAAGUCCUGUGCUACACAUCGUAUGUACCGAAUCGGGAAAGGGUGGGUUUUUUUGGGAAAGUAUUAUGUUACGCCGUUCGGAUCUGCACUUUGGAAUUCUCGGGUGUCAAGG	0.891
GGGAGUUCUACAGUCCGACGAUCCACAGACAACACGCACCCACACAGACACAGAGGGAAGGGGUUGAGAUGGGGACAGGGUGCACAGCAGGGCGGGGUAGGACCCCAGCCCCUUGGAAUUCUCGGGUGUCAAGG	0.919
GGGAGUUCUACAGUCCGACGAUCGCAGGAAGUAAAAACAAAUGGAAAUGCUUCAAAUAGUGGCAGGGGUGGGGGUUGCUAAGGAAAGGGUGGGAUGGGAGUGGGUAAAGAGUUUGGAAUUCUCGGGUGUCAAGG	0.414
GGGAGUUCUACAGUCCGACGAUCAAGUCCUGUGCUACACAUCGUAUGUACCGAAUCGGGGUUUUUGGGGUGGGGUGGGGAAAGUAUUAUGUUACGCCGUUCGGAUCUGCACUUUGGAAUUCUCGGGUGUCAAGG	1.34
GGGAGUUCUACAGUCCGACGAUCUCCUGUGCUACACAUCGUAUGUACCGAAUCGGGGUUUGGGGUUUUUUUGGGGUUUGGGGAAAGUAUUAUGUUACGCCGUUCGGAUCUGCAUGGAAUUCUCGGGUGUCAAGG	1.12
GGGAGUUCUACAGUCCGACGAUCCCUCAAGUCCUGUGCUACACAUCGUAUGUACCGAAUCGGGGCGGGCGGGCGGAAAGUAUUAUGUUACGCCGUUCGGAUCUGCACUUCCAGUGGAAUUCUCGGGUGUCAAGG	1.3
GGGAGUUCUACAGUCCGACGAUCCCUCAAGUCCUGUGCUACACAUCGUAUGUACCGAAUCGGGAGGGAGGAGGGGAAAGUAUUAUGUUACGCCGUUCGGAUCUGCACUUCCAGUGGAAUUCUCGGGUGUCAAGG	1.39

Set 2
Target: RNA binding protein fox-1 homolog 2, RRM domain, GST-SBP tag (RBFOX2, Homo sapiens, UniProt O43251-10, residues 100-194)
Method: RNA Bind-n-Seq
Molecule type: RNA
Matrix: in vitro
Concentration: 365 nM
Notes: natural RNA segment, single round, ends assumed
Reference: no-protein control
Direction: higher = stronger binding
Construct (chain): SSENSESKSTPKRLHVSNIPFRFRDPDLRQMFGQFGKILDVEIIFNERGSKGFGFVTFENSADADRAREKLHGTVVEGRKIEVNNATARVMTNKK
Oligonucleotide	RBNS enrichment (R)
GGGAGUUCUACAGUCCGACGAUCAAAUGUGAUGUAUUUAAAGAAGGUCCUUUACCUAGGAGCGAAUGAACAAUAGCUGAAUGUCUUGGUAUUUAAAGUGUAAAUUAUCUAUGGCUUUGCCAAAUGAAGGGAGGUGGAAUUCUCGGGUGCCAA	1.11
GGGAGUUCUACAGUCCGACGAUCAAGGUGCACUACAAAAAGAUGUAUGCAAACAAACAUGUUUUAAAUCAGGUCAGAUAUCUGAUGAAAAAUACGAACUAAUGUUAAGAGCAAGUAGUUUCAACAUACUCCAGUGGAAUUCUCGGGUGCCAA	0.321
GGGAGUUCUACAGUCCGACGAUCUCCUGGAUUGACUCUUAAUCAUCAGGCAUCAUUCCUGGUUUGCUUCUCUACGAAUCUCAAUUCCAACUUCUCUGCAGAGUCUGUACAGUGAUUAAGCCAUGCCAGAUGGUUGGAAUUCUCGGGUGCCAA	0.64
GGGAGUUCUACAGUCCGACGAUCGACACUGCUCCACUCAGUAUUCAUCCUGUUGACGCACACAGGUGAGCACUUUCCUAACUACUGCAGACAGACUGACUGCCAAGGCACACUGUGCUCACGACUGGAAAGUAUGGAAUUCUCGGGUGCCAA	0.319
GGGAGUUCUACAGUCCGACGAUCGCCAACCGGCUGCUCUAGGCUCCUGAGGAGUGUCCCUUCUCAAAGGAACUGCGCCCUGGAAAGGGCUCCCCGAAGUUCUAGGUGGCCUUGACCUGACACUUGCAUUUUCUUGGAAUUCUCGGGUGCCAA	1.34
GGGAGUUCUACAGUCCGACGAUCCUAGCCCUGCAGUUCCCACCUUUGAGGUUUUGUUAUGGUAAGUCCCCAAGUCCAGUACCUCUGGUAAAGUGGACUUCUUCCCCCAUCCCUAGAACCAGGGACCUAGAAACUGGAAUUCUCGGGUGCCAA	0.448
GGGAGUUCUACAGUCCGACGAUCCUCCGCACUGUGUGUACAGUAUUGGACAAAGGAUUUAUUCAUUUUGUUGCAUUAUUUUGAAUAUUGUCUUUUCAUUUUAAUAAAGUUAUAUUACUUAUUUAUGACACCGUUGGAAUUCUCGGGUGCCAA	1.23
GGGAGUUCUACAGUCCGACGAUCGCAAAGAGUCAGGAAGGUUACUGAAUUAGGGAACAUUUUCUGCACCUUCUGAUUUUACUUAAGCAGCUACCAUUCCAUGGACUUGCCUCCCAGAGCAGCACAAUGCCCGUUGGAAUUCUCGGGUGCCAA	1.67
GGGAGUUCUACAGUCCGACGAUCUUGUUGGGACGAGACCAACUGUGCUGUUGCUAUGGGACCUGGAGGAGGGUUAGGCAUGGGUGACACCCCAGAAGGGAACUUUCAUCUUUUCCCUUCCAAAAAUUGUCAACUGGAAUUCUCGGGUGCCAA	0.842
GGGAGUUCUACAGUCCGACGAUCAUUGCAACAAAGUUAGGAAGUUUGUUGUUUGUUUAUUAUAAACAAAAAGCAUGUGAAAGUGCACUUAAGAUAGAGUUUUUAUUAAUUACUUACUUAUUACCUAGAUUUUAUGGAAUUCUCGGGUGCCAA	2.19
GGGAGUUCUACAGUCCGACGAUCUACACUUCCAUGUCACCACAGCGUGGAGCAUUAGAGAAAAGCCUGGAUAGACUUUUAGUUGAUAGAGAGCCAGUUGAAAUAUCAUCAAUAGAAUUUUAGUUUAGGGAAAAUGGAAUUCUCGGGUGCCAA	0.84
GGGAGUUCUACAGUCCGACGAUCGAGCCAACAUCUGAAGAAACCCAUUGCUACGGCUUCCAGUGAAUGCCAGAGGAAAUGAUCUGUCCAUUUUUAGCAGAUUUGAAGGGAGGAUCUGCUUCAGGUGUAGUCUGUGGAAUUCUCGGGUGCCAA	1.34

Set 3
Target: Sal-like protein 4, full length isoform A (SALL4, Homo sapiens, UniProt Q9UJQ4, residues 1-1053)
Sequence of UniProt Q9UJQ4 (whole entry, looked up): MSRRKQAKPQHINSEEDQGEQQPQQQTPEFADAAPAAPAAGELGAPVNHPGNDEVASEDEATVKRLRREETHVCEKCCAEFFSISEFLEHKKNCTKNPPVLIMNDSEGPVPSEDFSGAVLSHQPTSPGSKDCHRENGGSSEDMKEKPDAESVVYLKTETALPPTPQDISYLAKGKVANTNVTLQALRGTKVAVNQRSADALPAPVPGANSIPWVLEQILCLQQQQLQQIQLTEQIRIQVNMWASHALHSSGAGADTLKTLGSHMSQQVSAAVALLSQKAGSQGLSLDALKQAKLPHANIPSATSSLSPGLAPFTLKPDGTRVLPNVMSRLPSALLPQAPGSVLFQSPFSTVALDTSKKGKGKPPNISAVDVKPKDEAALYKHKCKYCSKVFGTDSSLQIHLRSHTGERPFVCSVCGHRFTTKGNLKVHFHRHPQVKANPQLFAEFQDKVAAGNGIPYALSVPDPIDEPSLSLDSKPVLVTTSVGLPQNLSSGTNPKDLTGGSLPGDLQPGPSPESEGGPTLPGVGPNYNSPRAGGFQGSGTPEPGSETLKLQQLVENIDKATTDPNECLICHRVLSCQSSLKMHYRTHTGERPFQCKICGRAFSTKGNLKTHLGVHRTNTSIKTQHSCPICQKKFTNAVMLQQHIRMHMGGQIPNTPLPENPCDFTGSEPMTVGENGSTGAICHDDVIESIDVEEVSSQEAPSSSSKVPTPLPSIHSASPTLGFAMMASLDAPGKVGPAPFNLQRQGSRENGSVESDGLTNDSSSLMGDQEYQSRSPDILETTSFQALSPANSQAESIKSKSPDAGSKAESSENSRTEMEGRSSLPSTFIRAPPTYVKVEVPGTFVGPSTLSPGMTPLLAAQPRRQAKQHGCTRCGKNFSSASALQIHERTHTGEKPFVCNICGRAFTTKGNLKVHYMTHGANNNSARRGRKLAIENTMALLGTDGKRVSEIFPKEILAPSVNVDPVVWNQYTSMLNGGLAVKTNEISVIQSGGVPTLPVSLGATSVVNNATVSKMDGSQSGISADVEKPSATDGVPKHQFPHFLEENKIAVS
Method: universal PBM
Molecule type: double-stranded DNA, one strand shown
Matrix: in vitro
Concentration: 600 nM
Notes: 8-mer, flanks averaged, mean of replicates
Direction: higher = stronger binding
Oligonucleotide	E-score
ATTAATTG	0.381
ACCGGCAC	-0.237
TACGGCTA	-0.064
GCGACGCC	-0.361
GAACCGCA	-0.194
ACCCACAC	-0.0612
ATGTTAAA	0.345
AATTGGTG	0.161
AACCGACG	-0.156
CTCAGTTC	0.0502
GCACTTAC	-0.0765
AGAGCTCC	-0.339
CTCGGGCC	-0.277
AAGCGCCG	-0.306
AAGACGCA	-0.0404
TCTAGTAA	0.268
ATTTTCGC	0.193
AGTAGACC	-0.0831
AAGTAACT	0.138
GATCCAGC	-0.315
AACTATTG	0.331

Set 4
Target: CCND3, cyclin fold, Cln2 fusion (human)
Method: yeast growth competition, sequencing
Matrix: yeast
Notes: weak parent motif
Reference: not given
Direction: higher = stronger binding
Parent: GMNC docking peptide (human); KNAKRNLSSEFAN; partner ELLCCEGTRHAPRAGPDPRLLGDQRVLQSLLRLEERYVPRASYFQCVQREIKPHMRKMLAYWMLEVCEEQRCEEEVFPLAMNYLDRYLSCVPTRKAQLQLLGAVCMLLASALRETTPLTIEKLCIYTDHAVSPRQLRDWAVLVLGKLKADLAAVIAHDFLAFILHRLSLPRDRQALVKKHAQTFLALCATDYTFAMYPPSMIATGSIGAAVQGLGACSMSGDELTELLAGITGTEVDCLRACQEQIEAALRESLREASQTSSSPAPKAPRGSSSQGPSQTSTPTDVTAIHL
Substitution	normalised enrichment score
KGAKRNLSSEFAN [N2G]	0.0434
KAAKRNLSSEFAN [N2A]	0.00178
KNAKRNLSSDFAN [E10D]	-0.157
KNAKRNLSSQFAN [E10Q]	0.436
KCAKRNLSSEFAN [N2C]	0.263
KNAWRNLSSEFAN [K4W]	0.0955
KNAKRNLSWEFAN [S9W]	0.332
KNAKRNLSNEFAN [S9N]	0.492
KNAKRNVSSEFAN [L7V]	-0.105
KNAKRCLSSEFAN [N6C]	-0.251
KNAKRNLSSEFFN [A12F]	0.067
KNAKRELSSEFAN [N6E]	0.669
KNAKRDLSSEFAN [N6D]	-0.12
KNAKRNLMSEFAN [S8M]	0.485
KNAKRNLSSTFAN [E10T]	0.437
KNAKRNGSSEFAN [L7G]	0.373
KNVKRNLSSEFAN [A3V]	0.255
KNAKRNNSSEFAN [L7N]	0.391
KNANRNLSSEFAN [K4N]	-0.137
KNAKRNLSSEFEN [A12E]	0.298
KYAKRNLSSEFAN [N2Y]	0.346
KNARRNLSSEFAN [K4R]	0.252
KQAKRNLSSEFAN [N2Q]	0.377
KNEKRNLSSEFAN [A3E]	0.304
KNAKHNLSSEFAN [R5H]	0.157

Repeated from above (set 4):
Substitution	normalised enrichment score
KNAKHNLSSEFAN [R5H]	0.157
KNAKRNNSSEFAN [L7N]	0.391
KNAWRNLSSEFAN [K4W]	0.0955
KNAKRELSSEFAN [N6E]	0.669
KNAKRNLSSEFFN [A12F]	0.067
KNVKRNLSSEFAN [A3V]	0.255
